Experimental data gathered from unrelated publications.
± marks the error that the study gave.

The AUC(0-t) of CS(=O)(=O)c1ccc(-c2cnc(N)c(-c3ccc(C(F)(F)F)nc3)c2)cc1 is reported as 3750 ng·h/mL (pregnant female Sprague-Dawley rat, plasma; oral, 3 mg/kg/day, gestation day 6).
COc1cccc(N2CCN(C3=Nc4c(F)cccc4[C@H](CC(=O)O)N3c3cc(C(F)(F)F)ccc3OC)CC2)c1 has a clearance of 78.5 ± 16.3 mL/min (UHPLC-MS/MS; healthy women, plasma; intravenous infusion, 480 mg single dose, 60 min infusion, HPβCD formulation).
COc1ccc2nc([S@@+]([O-])Cc3ncc(C)c(OC)c3C)[nH]c2c1 has an adverse events of 0% (human healthy; 40 mg, reproductive and breast disorders).
CCc1cc2cc(O)cc(C(=O)c3cc(Br)c(O)c(Br)c3)c2o1 gave a microsomal CLint of 11.2 µL/min/mg (metabolic stability; Sprague-Dawley rat, liver microsomes; 1 µM, pH 7.4).
For Cn1cnc2c1c(=O)[nH]c(=O)n2C, the mean concentration was 348 nM (human, fasted baseline, cerebrospinal fluid).
For CN[C@@H]1[C@H](O)[C@H](NC)[C@H]2O[C@@]3(O)C(=O)C[C@@H](C)O[C@H]3O[C@@H]2[C@H]1O, the EC20 was over 400 µM (mitochondrial swelling; BALB/cByJ female mouse liver mitochondria; 30 min, with: succinate + rotenone; reference: CaCl2 maximal swelling).
For CC1=C2C[C@H]3[C@@H](CC[C@@H]4C[C@H](NS(C)(=O)=O)CC[C@@]43C)[C@@H]2CC[C@@]2(C1)O[C@@H]1C[C@H](C)CN[C@H]1[C@H]2C, the AUC(0-24) was 367 ng·h/mL (patients, plasma; oral, 60 mg single, day -7, cycle 1).
With Cn1c(-c2ccc(C(N)=O)cc2F)nnc1C(C)(C)Oc1c(F)cc(Cl)cc1F the AUC(0-inf) was 3040 ng·h/mL (elderly non-Japanese subjects, plasma; oral, 20 mg single dose, day 1, median).
For CO/N=C1\C[C@]2(C[C@@H]3C[C@@H](C/C=C(\C)C[C@@H](C)/C=C/C=C4\CO[C@@H]5[C@H](O)C(C)=C[C@@H](C(=O)O3)[C@]45O)O2)O[C@H](/C(C)=C/C(C)C)[C@H]1C, the drug concentration was 231 ± 83 ng/g (HPLC; lamb, cranial jejunum mucosa; intraruminal, 0.2 mg/kg, 0.5 days post-treatment).
The dose-normalized Cmax of [2H]C([2H])([2H])Oc1cc2c(cc1OC([2H])([2H])[2H])C1CC(=O)C(CC(C)C)CN1CC2 (stereo not shown) is reported as 1.6 ng/mL (item: deuterated α-HTBZ; healthy human volunteers, plasma; oral, 18 mg single dose, standard meal).
N#Cc1ccnc(N2C(=O)CC[C@H]2C(=O)N(c2cncc(F)c2)[C@H](C(=O)NC2CC(F)(F)C2)c2ccccc2Cl)c1 — result for “accumulation ratio AUC0-24”: 2.35 (human newly diagnosed mIDH AML, plasma; oral, 500 mg once daily, with: induction chemotherapy; reference: cycle 1 day 14 over day 1).
CNCc1cc(-c2ccccc2F)n(S(=O)(=O)c2cccnc2)c1 — result for “apparent clearance ratio”: 2.1 fold (rat Sprague-Dawley, plasma; oral, 10 mg/kg, with: voriconazole 30 mg/kg/day for 14 days; reference: control over voriconazole).
C=CC1=C(C(=O)O)N2C(=O)[C@@H](NC(=O)/C(=N\OCC(=O)O)c3csc(N)n3)[C@H]2SC1 has an EC20 of over 400 µM (mitochondrial swelling; BALB/cByJ female mouse liver mitochondria; 30 min, with: succinate + rotenone; reference: CaCl2 maximal swelling).
For CS(=O)(=O)n1cc2c(n1)CN([C@H]1CO[C@H](c3cc(F)ccc3F)[C@@H](N)C1)C2, the AUC(0-24h) was 16.4 µM·h (healthy male human, plasma; oral, 50 mg, fasted, geometric mean).
CC1=C(CC(=O)O)c2cc(F)ccc2/C1=C\c1ccc([S+](C)[O-])cc1 (stereo not shown) gave an EC20 of over 200 µM (cytochrome c release, ELISA; BALB/cByJ female mouse liver mitochondria; 30 min; reference: alamethicin maximal release).
CNc1cc(-c2csc(N(C)C(=O)c3ccc(F)cc3)n2)ncn1 [carbon-11 labelled] gave a logD of 3.27 ± 0.03 (1-octanol/sodium phosphate buffer; pH 7.4, corrected for radioligand instability).
